Measurements from different studies.
Protocols differ between the studies behind these lines. Values joined by “and” are separate records of one study, mostly repeats; a detail may differ. ± gives the spread as reported.

For `CCc1cc2ncc(CN3CCN(c4ccc(C(=O)NC)nc4)CC3)cc2[nH]c1=O`, “Neutrophils count ratio” read 0.57 (female rat, blood; oral, 5 mg/kg/day, 4 weeks; reference: vehicle control).
`CCc1nc(C(N)=O)c(Nc2ccc(N3CCC(N4CCN(C)CC4)CC3)c(OC)c2)nc1NC1CCOCC1` has an AUCtau of 4140 ng·h/mL (Japanese patients, plasma; oral, 80 mg, cycle 1 day 28, multiple doses, mean).
`Cc1ccc(C)c(OCCCC(C)(C)C(=O)O)c1`: “trough plasma concentration” 1520 ng/mL (human, plasma; oral, dose not given, day 11 predose, geometric mean).
`Cc1cccc(CNC(=O)c2cn(CCNC(=O)c3ccccc3S)c3cc4c(cc3c2=O)OC(F)(F)O4)n1` has a Tmax of 8.83 ± 7.62 h (Sprague-Dawley rat, male, plasma; intramuscular, 3 mg/kg of parent drug).
`CC(C)C[C@H](NC(=O)[C@@H](Cc1c[nH]c2ccccc12)NC(=O)[C@H](Cc1ccc(O)cc1)NC(=O)[C@H](CO)NC(=O)[C@H](Cc1c[nH]c2ccccc12)NC(=O)[C@H](Cc1c[nH]cn1)NC(=O)[C@@H]1CCC(=O)N1)C(=O)N[C@@H](CCCNC(=N)N)C(=O)N1CCC[C@H]1C(=O)NCC(N)=O` has a plasma concentration of 48.2 ng/mL (Chinese girls, precocious puberty, plasma; intramuscular, 22.5 mg, 4 h post-injection day 1, mean).
For `Cn1cc(Nc2nc(N)nc(-c3cccc(-n4ccc5cc(C6CC6)cc(F)c5c4=O)c3CO)n2)cn1`, “drug-related vomiting incidence” read 0% (healthy humans, fed; oral tablet, 150 mg twice daily (multiple dose), 14 (unit not given); reference: subjects).
`CC(C)(C(=O)N1CCOc2c(C#N)cncc2C1)C(F)F` — result for “subjects with adverse event”: 0% (refers to: Investigations; human; oral, 10 mg once daily, 14 days, multiple ascending dose).
Under “half-wave potential E1/2 (first)”, `CC1=C(Cc2cn(CCO)nn2)C(=O)c2ccccc2C1=O` is recorded as -0.61 V (square wave voltammetry; DMSO; vs Ag/AgCl (3 M KCl), together with: 0.1 M n-Bu4NPF6).
`Cc1ccc([C@@H]2O[C@H](CO)[C@@H](O)[C@H](O)[C@H]2O)cc1Cc1ccc(-c2ccc(F)cc2)s1` — result for “urinary calcium excretion change”: 7.65 mg (Japanese type 2 diabetes patients; 25 mg, day 15, 24 h urine collection; reference: baseline).
`NC1(C(=O)N[C@@H](CCO)c2ccc(Cl)cc2)CCN(c2nc[nH]c3nccc2-3)CC1`: “incidence of Leukopenia” 0% (metastatic CRPC patients; 400 mg b.i.d., grade 3 to 4, treatment-related, together with: enzalutamide 160 mg daily).
`N#Cc1ccc2c(c1)[C@H]1CCCN(C(=O)c3ccc4[nH]cnc4c3)[C@H]1C2` — result for “pre-dose plasma concentration”: 2310 nmol/L (human, plasma; 240 mg once daily, day 7).
The AUC(0-last) of `COc1ncc(-c2nc3c(n2C(C)C)[C@H](c2ccc(Cl)cc2)N(c2cc(Cl)cn(C)c2=O)C3=O)c(OC)n1` is reported as 306 ng·h/mL (LC-MS/MS; human, plasma; oral, 7.5 mg, cycle 1 day 8, low-dose arm).
`COc1ccc2nc([S+]([O-])Cc3ncc(CO)c(OC)c3C)[nH]c2c1` (stereo not drawn) — result for “R/S enantiomer ratio”: 9.89 (human, dried plasma spots; 2 h; reference: baseline).
`N#C[C@@]1(c2ccc3c(N)ncnn23)O[C@H](CO)[C@@H](O)[C@H]1O` gave a recovery of 94.7% (plasma protein binding; human plasma; 100 µM, time not given).
`O=C(O)/C=C/c1ccc(O)cc1` has a plasma concentration of 0.0845 µM (human plasma; median).
`Cn1cncc1[C@@](N)(c1ccc(Cl)cc1)c1ccc2c(c1)c(-c1cccc(Cl)c1)cc(=O)n2C` has an accumulation index of 1.25 and 1.13 and 1.05 and 1.11 and 1.58 (human, plasma; oral, 200 mg/m^2, cycle 1 first dose; reference: AUC(0-inf) over AUC(0-12h)).
`C=CC(=O)Nc1cc(Nc2nccc(-c3cn(C)c4ccccc34)n2)c(OC)cc1N(C)CCN(C)C` gave a recovery of 64.5% (storage stability; human dried blood spots; 72 h, on ice, LLOQ level).
`Cc1ccc(OS(=O)(=O)O)c(O)c1` gave a plasma concentration of 32.7 µM (human plasma; mean).
`O=c1c2ccccc2oc2ccccc12` gave a solubility of 0.0606 mole fraction (tricaprin-tricaprylin mixture; 45 °C, tricaprin fraction 0.56).
`COc1cc(/C=C/C(=O)O)cc(OC)c1O` gave a plasma concentration of 0.255 µM (human plasma; mean).
The plasma concentration of `O=Cc1cc2c(cc1F)C(=O)N(C1CCC(=O)NC1=O)C2` (stereo not drawn) is reported as 1 ng/mL (cynomolgus monkey, male; oral, 0.3 mg/kg parent drug, 3 h).
`O=C(O)CNC(=O)c1ccccc1` gave a plasma concentration of 387 µM (human plasma; mean, both sexes).
With `C[C@@H](N)C1CCN(S(=O)(=O)c2cccc3cnccc23)CC1` the t1/2 was 0.81 h (healthy volunteers, fasted, plasma; oral, 75 mg).
For `Cc1cc(C)c(CNC(=O)c2cc(Cl)c3c(c2C)O[C@@](C)([C@H]2CC[C@H](N(C)C)CC2)O3)c(=O)[nH]1`, “patients with grade ≥3 TEAE” read 0% (refers to: Hyperglycemia; human patients; oral, 200 mg once daily, 1 day onset day 14).
`Cc1nc2ccc(OCc3ccc(C(F)(F)F)cc3)cc2[nH]1` has a tissue/plasma ratio of 4.5 ± 0.6 (male Balb/c mice, heart; oral, 10 mg/kg, 4 h; reference: tissue over plasma).
The amount permeated of `CC(=O)O[C@H]1C[C@@]2(C)[C@@H](C[C@@H](O)[C@H]3[C@@]4(C)CC[C@@H](O)[C@@H](C)[C@@H]4CC[C@@]32C)/C1=C(\CCC=C(C)C)C(=O)O` is reported as 0.9 nmol (starch gel membrane permeability; Gram-negative envelope surrogate; 200 µM, 90 min, pH 7.4).
`CCCCOc1nc(N)c2c(n1)N(Cc1cccc(CN3CCCC3)c1)CC(=O)N2`: “drug-related TEAE incidence” 0% (refers to: Dizziness; human; oral, 2 mg).
For `Cc1c2oc3c(C)ccc(C(=O)N[C@@H]4C(=O)N[C@H](C(C)C)C(=O)N5CCC[C@H]5C(=O)N(C)CC(=O)N(C)[C@@H](C(C)C)C(=O)O[C@@H]4C)c3nc-2c(C(=O)N[C@@H]2C(=O)N[C@H](C(C)C)C(=O)N3CCC[C@H]3C(=O)N(C)CC(=O)N(C)[C@@H](C(C)C)C(=O)O[C@@H]2C)c(N)c1=O`, “minimum plasma concentration” read 1.3 µg/L (LC-MS; children with cancer, plasma; dose not given, 4 h).
`CCOc1c([C@H](C)n2nc(C)c3c(N)ncnc32)cc(Cl)c(F)c1[C@@H]1CNC(=O)C1`: “observations with HR ≤100 bpm” 100% (ECG; previously treated B-cell malignancy patients; oral, 15 mg once daily, baseline below thresholds).
For `CCN(Cc1ccc(F)cc1)c1ccc(CO)c(Cl)c1`, the ALT was 846 U/L and 64 U/L and 326 U/L (F344 rat, male, serum; oral, 100 mg/kg/day, 2 days).
With `COc1ccc2c3c([nH]c2c1)[C@H](CC(C)C)N1C(=O)[C@H](CC(=O)NC(C)C)NC(=O)[C@@H]1C3` the serum concentration was 34.9 µM and 41.9 µM and 29 µM (wild-type mouse, male, serum; oral, 100 mg/kg, 2 h).
`C[C@@H]1CN(c2c(F)c(N)c3c(=O)c(C(=O)O)cn(C4CC4)c3c2F)C[C@H](C)N1` has an amount permeated of 0.56 nmol (starch gel membrane permeability; Gram-negative envelope surrogate; 200 µM, 20 min, pH 7.4).
For `CCc1cc(C(=O)NC)c2nccc(N3CCc4c(cc(Cn5ccnc5)cc4-c4cn(C)nc4C(F)(F)F)C3=O)c2c1`, “serum ALT activity” read 63.3 ± 13.8 U/L (Sprague Dawley rats; oral, 50 mg/kg once daily, 7 days).
The AUC(0-last) ratio of `Cc1nc2cccc(OCC(C)(C)C(=O)NC(C)C)c2c(N)c1C(=O)O` is reported as 2.74 ± 0.56 (Sprague-Dawley rat, plasma; oral, 10 mg/kg, day 1; reference: female over male).
`Cc1ccc(O)c(-n2nc3ccccc3n2)c1` — result for “daily dermal exposure dose”: 3510 ng/kg/day (human aged 16-21 years; concentration not given, sunscreen, 95th percentile).
`O=C1C[C@@H](c2ccc(O[C@@H]3O[C@H](C(=O)O)[C@@H](O)[C@H](O)[C@H]3O)cc2)Oc2cc(O)cc(O)c21` gave a plasma concentration of 0.705 µM (human plasma; mean).
`N#Cc1ccc2c(c1)[C@H]1CCCN(C(=O)c3ccc4[nH]cnc4c3)[C@H]1C2`: “total testosterone level” 15.9 nmol/L (human males; 160 mg, day 7).
`NC[C@H]1O[C@H](O[C@H]2[C@H](O)[C@@H](O[C@H]3O[C@H](CO)[C@@H](O)[C@H](N)[C@H]3O)[C@H](N)C[C@@H]2N)[C@H](N)C[C@@H]1O` gave an amount permeated of 1.04 nmol (starch gel membrane permeability; Gram-negative envelope surrogate; 200 µM, 45 min, pH 7.4).
`CCO[C@H]1CCN(Cc2c(OC)cc(C)c3[nH]ccc23)[C@H](c2ccc(C(=O)O)cc2)C1`: “incidence of back pain” 0% (PNH patients, active haemolysis; oral, 200 mg, 8 weeks, treatment).
For `O=C(O)/C=C/c1ccc(O[C@@H]2O[C@H](C(=O)O)[C@@H](O)[C@H](O)[C@H]2O)c(O)c1`, the plasma concentration was 0.36 µM (human plasma; median).
`CNC(=O)c1ccc(-c2cnc3ncc(Cc4ccc5ncccc5c4)n3n2)cc1F` — result for “Haematuria dose reduction/interruption”: 1% (Japanese patients; oral, 400 mg, any grade).
`COc1cc(C=O)ccc1O` has a plasma concentration of 0.563 µM (human plasma; median, both sexes).
For `CC(C)(Sc1ccncc1-c1ccc(C#N)c2ccccc12)C(=O)O`, the AUC(0-24) was 51 ng·h/mL (human, plasma; oral, 2.5 mg once daily, together with: febuxostat 10 mg).
`CCn1cc(C(=O)O)c(=O)c2cc(F)c(N3CCNCC3)cc21` gave an amount permeated of 1.64 nmol (starch gel membrane permeability; Gram-negative envelope surrogate; 200 µM, 20 min, pH 7.4).
The C24h of `Cc1ccc(C(=O)N(CCCN)C(c2nc3snc(C)c3c(=O)n2Cc2ccccc2)C(C)C)cc1` (stereo not drawn) is reported as 13.2 ng/mL (patients, plasma; intravenous, dose not given, 24 h, first induction course, all doses, geometric mean).
The AUClast of `O=C(c1cccnc1-c1ccncc1)N1CCC(O)(Cc2ccccc2)CC1` is reported as 232 ng·h/mL (healthy Japanese adults, plasma; oral, 100 mg twice daily, day 1).
`CCC(=O)N(CCC(c1ccc2c(c1)OCO2)c1ccccc1OC)Cc1ccccc1` (stereo not drawn) has a PDW of 6 fL (female athymic nude mouse, blood; i.p., 60 mg/kg twice daily, 14 days, group mean).
`O=C(O)/C=C/c1ccccc1` has a plasma concentration of 5.99 µM (human plasma; mean, both sexes).
`CN(C(=O)C(C)(C)c1cc(C(F)(F)F)cc(C(F)(F)F)c1)c1cnc(N2C[C@H]3COCCN3C[C@H]2CO)cc1-c1ccc(F)cc1[14CH3]`: tolerability “not toxic” (healthy men; oral, 120 mg single dose).
`CN(C)CCCNC(=O)/C(=C/CCCCC(=O)NO)COc1cccc2ccccc12` has an MRT(0-inf) of 7.51 h (human; iv, 312.5 mg/m2, day 1, single dose, mean).
Under “adverse event incidence”, `CNC(=O)c1ccc(-c2cnc3ncc(Cc4ccc5ncccc5c4)n3n2)cc1F` is recorded as 9% (phase 1 clinical trial, refers to: blood bilirubin increased; HCC expansion cohort; oral, 600 mg twice daily, grade 3 or 4).
`O=C(Nc1nc2cccc(-c3ccc(CN4CCS(=O)(=O)CC4)cc3)n2n1)C1CC1`: “treatment-emergent adverse events” 0% (refers to: paraesthesia; human rheumatoid arthritis patients; oral, 75 mg once daily, 4 weeks, regardless of relatedness).
`O=C(O)CCC(=O)O.[2H]C([2H])([2H])Oc1cc(C)c2[nH]ccc2c1CN1CC[C@@H](C2CC2)C[C@H]1c1ccc(C(=O)O)cc1` — result for “subjects with dental ulcer TEAE”: 12.5% (multiple ascending dose; healthy Chinese subjects; 200 mg once daily).
`COc1ccc2[nH]c([S+]([O-])Cc3ncc(C)c(OC)c3C)nc2c1` (stereo not drawn) gave a Cmax of 1090 ± 1050 ng/mL (healthy Chinese volunteers, plasma; oral, 20 mg, enteric-coated capsules, CYP2C19 poor metabolizers).
Under “postural dizziness participants”, `O=C(COc1ccc(Cl)cc1)NC12CC(c3nnc([C@H]4C[C@@H](OC(F)(F)F)C4)o3)(C1)C2` is recorded as 16.7% (human both sexes; oral, 45 mg once daily, 14 days).
With `COc1ccc2c(c1)CN(C(=O)CCN1CCC(Cc3ccccc3)CC1)CC[S@@+]2[O-]` the PQ interval was 91 ± 11 ms (telemetry; conscious male beagle dogs; intravenous, 4 mg/kg, 1 h).
`Cc1nc(-c2ccc(OCC(C)C)c(C#N)c2)sc1C(=O)O`: “subjects discontinued due to AEs” 0% (healthy Chinese subjects, fasted; oral, 40 mg single dose).
